Results of several laboratories.
A part holds a random share of what one study measured.

Sample 1 — method: RNA Bind-n-Seq; molecule type: RNA; matrix: in vitro; concentration: 200 nM; setting: whole 134-nt RNA, ends assumed; added: 150 mM KCl; relative to: input library; reading: higher = stronger binding
Target: Fragile X messenger ribonucleoprotein 1, C-terminal low-complexity region (Fmr1, Mus musculus, UniProt P35922)
Constant ends, left off below: GGGAGUUCUACAGUCCGACGAUC … UGGAAUUCUCGGGUGUCAAGG
Oligonucleotide | log2 enrichment
AGUCCUGUGCUACACAUCGUAUGUACCGAAUCGGCCCCCGGGCCCCCGGGGCCCCCGGAAAGUAUUAUGUUACGCCGUUCGGAUCUGCAC | -0.806
GUCCUGUGCUACACAUCGUAUGUACCGAAUCGGGGUGGGGAAAAAGGGGAAAAAGGGGAAAGUAUUAUGUUACGCCGUUCGGAUCUGCAC | 0.337
CAAGUCCUGUGCUACACAUCGUAUGUACCGAAUCGGGGUUGGGGUUGGGGUUGGGAAAGUAUUAUGUUACGCCGUUCGGAUCUGCACUUC | 1.3
UCCUCAAGUCCUGUGCUACACAUCGUAUGUACCGAAUCGGAGGAGGAGGGGAAAGUAUUAUGUUACGCCGUUCGGAUCUGCACUUCCAGC | -0.373
CUCAAGUCCUGUGCUACACAUCGUAUGUACCGAAUCGGAAAAAAAGGAGGAGGAAAGUAUUAUGUUACGCCGUUCGGAUCUGCACUUCCA | -0.292
UCAAGUCCUGUGCUACACAUCGUAUGUACCGAAUCGGGGAAGGGGAAGGGAAGGGAAAGUAUUAUGUUACGCCGUUCGGAUCUGCACUUC | 0.747
UAGCCAAGAGUCGAAGCUAAACCAGAAGUUCAAUCUCAGCCACCUCGUGUGCGUGAACAACGACCUAGAGAACGACCUGGUUUUCCUCCU | -0.234
CCUGUGCUACACAUCGUAUGUACCGAAUCGGGGUUUUUUUGGGGUUUUUGGGGUUUGGGGAAAGUAUUAUGUUACGCCGUUCGGAUCUGC | 0.418
UUUGAAAAAGAAGAAAAAGAAAAAGAAGGGUAAGGCAUUAAAAAAGUCUUUAUAAAUUUUCUCCAAAAUAAAUGUUUGAUUUUAGCCCUA | -1
UCAAGUCCUGUGCUACACAUCGUAUGUACCGAAUCGGGUUUGGUUUGGUUUGGGAAAGUAUUAUGUUACGCCGUUCGGAUCUGCACUUCC | -0.521
AGUCCUGUGCUACACAUCGUAUGUACCGAAUCGGUUUUUGGUUUUUGGGGUUUUUGGAAAGUAUUAUGUUACGCCGUUCGGAUCUGCACU | -0.502
UCCCAAUGCUCGGAGGAAGCCCAAGGGCAGCCCUCGUGUACCUGAUGCCAAGAAGCCUAAACCCAAGAAAGUAGCUCCCCUGAAAAUCAA | 0.372
UGGGAGGUGGAUUUUGUUUAUUUUUUUAGCUCAUUUCCAGGGGUGAGAAUUUUUUUUUAAUAUGUGUCAUGAAUAAAGUUGUUUUUGAAA | 0.0832
UCAAGUCCUGUGCUACACAUCGUAUGUACCGAAUCGGUUUGGUUUGGGUUUGGGGAAAGUAUUAUGUUACGCCGUUCGGAUCUGCACUUC | -0.355

Sample 2 — method: protein-binding microarray; molecule type: double-stranded DNA, one strand shown; matrix: in vitro; concentration: 940 nM top; setting: 60-bp whole probe; added: salmon DNA 0.4 mg/ml; relative to: random background probes; reading: higher = stronger binding; constant ends, left off below: GCCTAGCAC … GTCTTGATTCGCTTGACGCTGCTG
Target: Interferon regulatory factor 5, full length, phosphomimetic (IRF5, Homo sapiens, UniProt Q13568-2, residues 1-514, S451D/S453D/S456D/S462D)
Oligonucleotide | fitted relative affinity
GACCGTTTCCTTTCCCTGACGTGCTAG | 1.79 z-score
TCACTCACTCACAGACTCACGTGCTAG | 0.438 z-score
TTAGGTTCCCTGTTCCTTTAGTGCTAG | 0.169 z-score
TCAGATATCGGGTTTCGATTAGTGCTA | 5.57 z-score
TTAGATCTCGGTTTCGATTAGTGCTAG | 7.97 z-score
GACGGAATGCTTTTCCTGACGTGCTAG | -0.537 z-score
TTTTGCTTTCATTTATTTACGTGCTAG | 3.53 z-score
GACGGTATCTGGTTTCGGGACGTGCTA | 4.86 z-score
GACGGTTCTCTTTTCCTGACGTGCTAG | 1.1 z-score
GACGGTTTCCGGTTTCGGGACGTGCTA | 4.13 z-score
TCGTAAGCAAAAATGATTGGGTGCTAG | -0.297 z-score
TCAGATCTCAGTTTCGATTAGTGCTAG | 8.46 z-score
TTAGAACTGAGACTGGATGAGTGCTAG | -0.155 z-score
GACGAGATCAGTATCGAGACGTGCTAG | 3.39 z-score
TTAGGATTCCTTCTCCTTTAGTGCTAG | 0.451 z-score
GACGGTCTCTGTCTCGGGACGTGCTAG | 1.25 z-score
GACCGTCTCCTACTGCTGACGTGCTAG | 0.0554 z-score

Sample 3 — method: RNA Bind-n-Seq; molecule type: RNA; matrix: in vitro; concentration: 365 nM; relative to: no-protein control; reading: higher = stronger binding
Target: RNA binding protein fox-1 homolog 2, RRM domain, GST-SBP tag (RBFOX2, Homo sapiens, UniProt O43251-10, residues 100-194)
Setting: natural RNA segment, single round, ends assumed
Constant ends, left off below: GGGAGUUCUACAGUCCGACGAUC … UGGAAUUCUCGGGUGCCAA
Construct (chain): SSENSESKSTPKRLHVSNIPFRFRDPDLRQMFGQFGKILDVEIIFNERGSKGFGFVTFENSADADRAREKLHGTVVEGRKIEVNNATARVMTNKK
Oligonucleotide | RBNS enrichment (R)
CCAGUCUUCACCCCAACCUCAGCUGAUUGUAGUACACCUGCUAGCUCUGUUGCCCCCUCAAAACUGCACCCAGAGCAGGGCCACAAGGGUGCUUUUUUUCUUUAAAAAAA | 0.707
UUGAUAAUAGUAGGUGAAGGUUCUGGAGGCCUUUACCAGGACAGAGCUAGAAUCGAGCCAGUAAACAGUCUAAGCCAGAAAAAUAAUUUUCAAAUGCUUUACCUGUAUUU | 0.605
GCAAAGCUUCUAAAGACCGAAGGAAUCUUUCCCUCACCCCCACCCCCUCGCCUUGGUGAUUUCUUGUUUGAUUUUGCCUCAUGGUCAAGAAAGGAGGGGGAAAAUCCAGC | 0.248
CACGACGGAAGUGAAGAAGAUACUGCAUUCAAGUGUUUUUUGUAAAAGUUUGUCAUGGUGAAUAACUUGAAAUUUUUAUUAGUUAUAAGAAUUUUAGUCUGUUUUAGAGG | 0.428
UUUCUGACCACGCUCAAUGUGGAAGGCUGGAAGUACACCUUGUUGGAGGCUUCAGUGACGACAGGCAGUUGUCACAAAAACUCACUCAUCAACUUCUUGGUGAAUUUGAC | 0.224
CCAUCUUGUGAAGCCCUGUUGUGCCCCACAGUGUAGCCAGGCCCCCUGCAGCUAGUCAUAGUGAAGCCCACCCUAAGGCCCUGUGAGCGCCAGCUCCCUCACAUGUACUU | 0.32
ACUAAGAUCGGCUGGAAAAGGGUAGGUGUUCUGAGCCCUGUACCGUGCAGGUGGUGGUGGAGCUGAUCCUGCAGGCGCGACCCUGGGACCAGGUCCUGAAUGCCCUGAAG | 0.327
CAGACACUUAAAGUAUUUAUGCUUAAGUGUGCAUUUUUUUAUUCUAAUAUUCCUUCUAGUCAGUGGAAAUUUGUAUUCCCAUACAAACUCAGAAUGCUAUAUUUUUAACA | 0.679
UUAUUAUACACAGCUCUGUAAACUACCACUCAGCCCUGUGUUGGGGUCCUCAAAGAAGUAAGGCCACAGUAAUCAAGCAAGGGCCUUUGGUUUUUUCCAGAGUUAGAUCC | 0.319
AAUCAGAAUUGUUAUCUUUGUUCAGGUAAAAUGAGUUGCAAGAUAUUGUGGGUACUUUUGUGUGCUCAUUUGUGUUUUCCCCCCCUCCUACAACAUUUUUUUAACCCCAA | 0.555
CAGCCAGGGGGCGCCCACAACCCCUUCAAGGACUGAAGCCUCAAGCUGCCCGGGGUGGCACGUCGCGAAAGCUUGUUUCCCCACGGUCUGGCUUCUGCAGGGGAAAUUUC | 0.435
CACCUACUAUAACAUCCAUGUGUGUUUGGAUAAAGACCUCUUAGAACCAUGGAGAAAUUAACUCAGUUAAUUUAAGACUUUGUUUGGUUUUUUUUUUUUAAGUUUAGUUU | 0.803

Sample 4 — method: RNA Bind-n-Seq; molecule type: RNA; matrix: in vitro; concentration: not given; relative to: input RNA pool; reading: higher = stronger binding
Target: RING finger protein unkempt homolog, zinc fingers 1-6, GST-SBP tag (UNK, Homo sapiens, UniProt Q9C0B0, residues 30-357)
UniProt Q9C0B0, sequence (30-357, looked up): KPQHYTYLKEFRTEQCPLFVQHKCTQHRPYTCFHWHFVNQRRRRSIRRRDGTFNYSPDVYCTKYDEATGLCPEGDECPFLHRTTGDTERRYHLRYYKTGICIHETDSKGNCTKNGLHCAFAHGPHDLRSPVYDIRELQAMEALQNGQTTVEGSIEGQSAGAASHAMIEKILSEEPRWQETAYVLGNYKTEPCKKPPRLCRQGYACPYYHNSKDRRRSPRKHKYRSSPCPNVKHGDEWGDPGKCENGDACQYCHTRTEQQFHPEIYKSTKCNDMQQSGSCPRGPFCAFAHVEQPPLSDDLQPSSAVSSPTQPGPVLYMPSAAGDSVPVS
Setting: RNA with constant flanks, human-mouse chimeric sites, ends assumed
Constant ends, left off below: GGGAGUUCUACAGUCCGACGAUC … CAACAGAGGAUUGAGCAUCA
Oligonucleotide | bound/input enrichment [ratio]
UUAAUCCCCUUUACUGCUCCCCCACUUCUCAUGGUAAUAACAAAGUCUUAUAUUCCCAUAUUAGCUUUCACUCAGAUGGCUUAUGGAGCCGGUUUCCUAGCUUUCUUGGGAGGGAUCAGA | 0.326
AGAGAUAAGACAUCCAGGAACAUGCGAGGCUCCCGGAUGAAUGGGUUGCCUAGCCCCACUCACAGCGCCCACUGUAGCUUCUACAGAACCAGAACCUUGCAGGCACUAAGUAAUGAGAAG | 0.156
CUGAAAAACACAGAUAUCAAAGUUGUUGACUUUGGAAGUGCAACGUAUGAUGAUGAACAUCACAGUACUUUGGUGUCCACAAGGCACUACAGAGCUCCCGAGGUCAUUUUGGCUUUAGGU | 0.282
CUGUGUGUGCUGAAUAAAUGGCUUGUAAAGAAGUUUUUCCAAGCUGUACCCAUGUACUCCCUUAGAGUUGCUGCAAAAUGUUCUUCCUGAUAUUGAUUUUAUUUGUUAACUGAAGGUCUC | 1.27
AGAUUCCCCCUCCUGAGACCUCCUCCGAAGUUGGAGUCUCUUACAGAUGGUUCAUCUCCUGUUAGCGUUUUAGUUUGGACCACCCAGCCUUGGACAAUUCCCGCCAAUGAAGCUGUUUGC | 3.77
AAAGAAAAUGGAGAUGUAAAGAUUUUGCUGAAAAGUGGGAAGGAGAAACCAAAAACAAAUAUAGAAGACUUACAAAUUAAAAAAGUAAAGAAGAAAAAGAAAAAGAAACACAAAGAGAAU | 14.9
GACCCACAGUGGUCUGAGGAGCAACUCAUUGCUGCAAAAUUCUGUUUUGCUGGCCUUGUUAUAGGGCAGACUGAAGUGGAUAUCAUGAGUCAUGCCACACAAGCUAUUUUUGAAAUUCUG | 0.201
AAAGAAUGGAUAGAGUGUGCACACGGGAUCGGUGGGACUCGGGCAGAAAAGGAGUGCAAGAUAGAGUUCGAUGACUUCGAAGAGUGCUUGCUUCGGUACAAAACGAUGAGGCGAAUGCAU | 0.449
UCUGGUCACACUCGUGUGUAUGGUGUUUGCUUUGUGGACACUUCACUGGGAAAGUUUUUCAUCGGCCAGUUUUCGGAUGACCGCCACUGUUCCAGAUUUAGGACUCUAGUGGCUCACUAU | 0.158
GAGUCGAUUAUGGAAACAACAAUUCGUUAUCUUGCAGCCUCAGUGUUCACUUGCUUGGCGAUAGCAUUGGGGUUUUAUAGGUUCUGGAAGGAGAACUGACGAUGAUGUCCUGCUGUGUGC | 0.143
UUACCCGAGAACGAGGAUGAGCUGGAGAGCACCAACAGACGCUAUACCAAGAGGGACUGCAGCACUUUCCUCAGAACUAGUGAGACGGGCAUCGUGGACCAGGUCAUGGUCACUCUCAAC | 0.228

Repeated from above (sample 2):
Oligonucleotide | fitted relative affinity
GACGGTATCTGGTTTCGGGACGTGCTA | 4.86 z-score
GACGGTTCTCTTTTCCTGACGTGCTAG | 1.1 z-score
TTAGAACTGAGACTGGATGAGTGCTAG | -0.155 z-score
GACGAGATCAGTATCGAGACGTGCTAG | 3.39 z-score
